Assay results of several laboratories.
Compare with care: the assays were run in different laboratories. Values joined by “and” are separate records of one study, mostly repeats; a detail may differ.

Compound = CN1CCCNC(=O)c2cccc(c2)C(=O)NCCCN(C)CCCNc2cccc3c2C(=O)c2cccc(c2C3=O)NCCC1; target or system = SAS; assay = RNA-Seq, item: ZNF281 mRNA; conditions = 1 µM, 6 h; how to read = baseline: untreated cells; endpoint = log2 fold change; value = -0.643
Compound = Cc1ccc(SCCOCCN2CC(C)OC(C)C2)cc1.Cl (stereo not drawn); target or system = Trypanosoma cruzi; assay = reporter mRNA translation, inhibitor, item: Renilla luciferase mRNA; system = cell-free extract; conditions = concentration not given, test 1; how to read = baseline: positive over negative control; endpoint = translation activity; value = 99% and 102%
Compound = Cc1ncsc1-c1ccc(C(C)NC(=O)C2CC(O)CN2C(=O)C(NC(=O)CCCCCCCCCCN2CCCC(Nc3ncc(Cl)c(Nc4ccccc4S(=O)(=O)C(C)C)n3)C2)C(C)(C)C)cc1 (stereo not drawn); target or system = 22Rv1; assay = RNA-seq, item: ZNF396 mRNA; conditions = concentration not given; how to read = baseline: DMSO; endpoint = log2 fold change; value = -2
Compound = Nc1ncc(-c2cc(-c3cnn(CC(F)(F)F)c3)ncc2F)nc1C(=O)NC1CNCC(F)C1 (stereo not drawn); target or system = EPHA6; assay = KINOMEscan; conditions = 1 µM; how to read = baseline: DMSO control; endpoint = remaining binding; value = 94%
Compound = CC(C)c1ccc(N(C)c2ccc3c(c2)OCC[C@H]3CNc2cnccc2C(=O)O)cc1; target or system = SNU-398; assay = cell growth or viability, ATP luminescence; conditions = 7 days; endpoint = IC50; value = 18 nM
Compound = CCN(CC)CC(=O)Nc1cccc(-n2cc(-c3ccc4ccc(-c5cn(-c6cccc(NC(=O)CN(CC)CC)c6)nn5)cc4c3)nn2)c1; target or system = RCC4; assay = PCR array, item: VEGFC; conditions = 5 x IC50, 2 h, normoxia; how to read = baseline: untreated; endpoint = fold regulation; value = -1.03 fold
Compound = CNS(=O)(=O)Nc1nccc(Cc2c(C)c3ccc(Oc4ncccc4F)cc3oc2=O)c1F; target or system = HARA; assay = cell viability, CellTiter-Glo; conditions = 7 days; endpoint = IC50; value = > 1000 nM
Compound = C=CC(=O)Nc1cccc(Cn2ncc3cnc(Nc4cnn(CCOC)c4)nc32)c1; target or system = human SIK; assay = KINOMEscan; conditions = 100 nM; how to read = baseline: control; endpoint = binding; value = 85%
Compound = CO[C@@H]1[C@@H](OC(N)=O)[C@@H](O)[C@H](Oc2ccc3c(O)c(NC(=O)c4ccc(O)c(CC=C(C)C)c4)c(=O)oc3c2C)OC1(C)C; target or system = HCT-116 parental; conditions = 250 µM, replicate 2; endpoint = colony count; value = 1.05
Compound = COC1CN([C@H]2CC[C@H]([C@@]3(C)Oc4c(Cl)cc(C(=O)NCc5c(SC)cc(C)[nH]c5=O)c(C)c4O3)CC2)C1; assay = RNA-seq, item: PLEKHH2; system = human, whole blood; conditions = dose not given, 24 h; how to read = baseline: pretreatment baseline; endpoint = log2 fold change; value = 2.82
Compound = Cn1ncc2cc(-c3cncc(Cl)c3N3CCC4(CCNC4=O)CC3)ccc21; target or system = LS174T; assay = gene expression, microarray, item: RPSA mRNA; conditions = concentration not given, 4 h; how to read = baseline: untreated cells; endpoint = log2 fold change; value = 1.8
Compound = CCOc1cncc(-c2ccc(NC(=O)C3(c4ccnc(NS(=O)(=O)C5CC5)n4)CCOCC3)nc2)n1; target or system = KLE; assay = cell proliferation, CellTiter-Glo; conditions = 72 h; endpoint = IC50; value = 10000 nM

Repeated from above:
Compound = Cc1ncsc1-c1ccc(C(C)NC(=O)C2CC(O)CN2C(=O)C(NC(=O)CCCCCCCCCCN2CCCC(Nc3ncc(Cl)c(Nc4ccccc4S(=O)(=O)C(C)C)n3)C2)C(C)(C)C)cc1 (stereo not drawn); target or system = 22Rv1; assay = RNA-seq, item: ZNF396 mRNA; conditions = concentration not given; how to read = baseline: DMSO; endpoint = log2 fold change; value = -2
